Published values of several laboratories.
Protocols differ between the studies behind these lines. Values joined by “and” are separate records of one study, mostly repeats; a detail may differ. ± marks the error that the study gave.
Chain of UniProt Q86Y07 (whole entry, looked up): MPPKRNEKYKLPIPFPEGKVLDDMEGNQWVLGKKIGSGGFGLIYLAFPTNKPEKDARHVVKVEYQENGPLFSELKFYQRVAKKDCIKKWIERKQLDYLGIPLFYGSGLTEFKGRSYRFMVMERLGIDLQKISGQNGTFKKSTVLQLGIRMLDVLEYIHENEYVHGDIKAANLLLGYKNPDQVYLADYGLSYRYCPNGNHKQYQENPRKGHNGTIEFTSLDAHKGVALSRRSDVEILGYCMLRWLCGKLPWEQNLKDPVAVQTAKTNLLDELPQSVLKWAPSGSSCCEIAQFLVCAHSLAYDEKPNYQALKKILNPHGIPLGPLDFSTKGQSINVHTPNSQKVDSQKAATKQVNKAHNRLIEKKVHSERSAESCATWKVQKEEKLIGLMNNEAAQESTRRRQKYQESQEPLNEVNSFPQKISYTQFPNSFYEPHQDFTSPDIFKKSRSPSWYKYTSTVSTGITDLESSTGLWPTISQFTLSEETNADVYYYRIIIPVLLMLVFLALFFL

| Compound | target or system | test | system | setting | how to read | quantity | result |
| --- | --- | --- | --- | --- | --- | --- | --- |
| O=C(c1cc(Cc2n[nH]c(=O)c3ccccc23)ccc1F)N1CC(CNC2CC2)C1 | HCC1569 | – | – | – | – | IC50 | 0.0008 µM |
| Cc1cc(Nc2nc(C[C@@]3(C(=O)O)CCN(Cc4cccc(Cl)c4F)[C@H](C)C3)cc(C)c2F)[nH]n1 | SW48 | cell growth or viability, ATP luminescence | – | 5 days | – | IC50 | 0.0731 µM |
| CC(=O)N[C@H](C(=O)N[C@@H](CCCNC(=N)N)C(=O)N[C@@H](CCCCN)C(=O)N[C@@H](CCCNC(=N)N)C(=O)N[C@]1(C)CCCC=CCCC[C@@](C)(C(=O)N[C@@H](CC(C)C)C(=O)N[C@@H](CC(C)C)C(=O)N[C@@H](CCC(N)=O)C(=O)N[C@@H](CCC(=O)O)C(=O)N[C@@H](CCCNC(=N)N)C(=O)N[C@@H](CCC(=O)O)C(=O)N[C@@H](CC(C)C)C(=O)N[C@H](C(=O)N[C@@H](CCC(=O)O)C(N)=O)C(C)C)NC(=O)[C@H](CCCNC(=N)N)NC(=O)[C@H](CC(C)C)NC1=O)C(C)C | H2030 (wild-type EGFR) | cell viability, ATP luminescence | – | 18 h | – | IC50 | 43.4 ± 2.51 µM |
| Cc1ccc(C(C)C)cc1.O=C(N=P(c1ccccc1)(c1ccccc1)c1ccccc1)c1ccccn1.[Cl-].[Cl][Ru+] | MCF-10A | cell growth or viability, MTT | – | – | – | IC50 | 2.52 µM |
| CC(=O)N[C@H](C(=O)N[C@@H](CCCNC(=N)N)C(=O)N[C@@H](CCCCN)C(=O)N[C@@H](CCCNC(=N)N)C(=O)N[C@H](C(=O)N[C@@H](CC(C)C)C(=O)N[C@@H](CCCNC(=N)N)C(=O)N[C@@H](CCCNC(=N)N)C(=O)N[C@]1(C)CCCC=CCCC[C@@](C)(C(=O)N[C@@H](CCCNC(=N)N)C(=O)N[C@@H](CCC(=O)O)C(=O)N[C@@H](CC(C)C)C(=O)N[C@H](C(=O)N[C@@H](CCC(=O)O)C(N)=O)C(C)C)NC(=O)[C@H](CCC(N)=O)NC(=O)[C@H](CC(C)C)NC1=O)[C@@H](C)O)C(C)C | SK-N-MC (no EGFR or ErbB2-4) | cell viability, ATP luminescence | – | 18 h | – | IC50 | > 100 µM |
| CC[C@H](C)[C@@H]1NC(=O)[C@@H]2CCCN2C(=O)[C@H](C)NC(=O)[C@H](CC(C)C)NC(=O)[C@@H]2CCCN2C(=O)[C@H](C)NC(=O)[C@@H]2CSSC[C@H](NC(=O)[C@H](C)NC(=O)[C@H](C)NC(=O)[C@H](Cc3ccc(O)cc3)NC(=O)[C@@H]3CCCN3C(=O)CNC(=O)[C@H](Cc3c[nH]c4ccccc34)NC1=O)C(=O)N[C@@H](CC(C)C)C(=O)N[C@@H](CO)C(=O)N[C@@H](C)C(=O)N[C@H]1CSSC[C@H](NC(=O)[C@H](C(C)C)NC(=O)[C@@H]3CCCN3C(=O)CNC(=O)CNC(=O)CNC(=O)[C@H](C)NC(=O)[C@H](C)NC(=O)[C@H](CC(C)C)NC1=O)C(=O)N[C@@H](CC(C)C)C(=O)N[C@@H](C)C(=O)N[C@@H](C(C)C)C(=O)N2 | LN-18 | – | – | – | – | IC50 | > 128 µg/mL |
| CC(=O)N[C@H](C(=O)N[C@@H](CCCNC(=N)N)C(=O)N[C@@H](CCCCN)C(=O)N[C@@H](CCCNC(=N)N)C(=O)N[C@H](C(=O)N[C@@]1(C)CCCC=CCCC[C@@](C)(C(=O)N[C@@H](CCC(N)=O)C(=O)N[C@@H](CCC(=O)O)C(=O)N[C@@H](CCCNC(=N)N)C(=O)N[C@@H](CCC(=O)O)C(=O)N[C@@H](CC(C)C)C(=O)N[C@H](C(=O)N[C@@H](CCC(=O)O)C(N)=O)C(C)C)NC(=O)[C@H](CC(C)C)NC(=O)[C@H](CCCNC(=N)N)NC(=O)[C@H](CCCNC(=N)N)NC1=O)[C@@H](C)O)C(C)C | H2030, wild-type EGFR | – | – | – | – | IC50 | > 50 µM and > 100 µM |
| CN(C)[C@H]1C[C@@]23CC[C@@]4(O2)C(=CC[C@]2(C)[C@@H](c5ccc6ccncc6c5)CC[C@H]24)C=C3[C@@H](O)[C@@H]1O | VRK2 (Homo sapiens, UniProt Q86Y07) | ATP probe labelling, inhibitor, KiNativ profiling | – | 1 µM | – | inhibition | -15.9% |
| C1N2CN3CN1CP(C2)C3.COc1ccc(C(O)=CC(=O)c2ccc(C(C)(C)C)cc2)cc1.Cc1ccc(C(C)C)cc1.[Ru+2] | HL-60 | phototoxicity | – | light over 450 nm, 29.1 J/cm2 | – | IC50 | 0.14 µM |
| C[C@H]1[C@H](OC(=O)CCC(=O)OCCC2CCN(CC(=O)Nc3ccc([N+](=O)[O-])c(C(F)(F)F)c3)CC2)O[C@@H]2O[C@@]3(C)CC[C@H]4[C@H](C)CC[C@@H]1[C@@]24OO3 | MCF-10A | cell growth or viability, CCK-8 | – | – | – | IC50 | 27.3 µM |
| CCCC[C@H](N)C(=O)N[C@H]1CSCc2ccc(cc2)-c2ccc(cc2)CSC[C@@H](C(=O)N[C@H](C(N)=O)[C@@H](C)O)NC(=O)[C@H](CCCCN)NC(=O)[C@H](CCCCN)NC(=O)[C@H](CCCCN)NC(=O)[C@H](Cc2ccc(O)cc2)NC(=O)[C@H](CC(N)=O)NC(=O)[C@H](CC(C)C)NC1=O | ASPC1 | cell growth or viability, ATP luminescence | – | – | – | IC50 | 17 µM |
| Cc1sc2c(c1C)C(c1ccc(NC(=O)c3cc([N+](=O)[O-])ccc3F)cc1)=N[C@@H](CC(=O)OC(C)(C)C)c1nnc(C)n1-2 | Ramos | cell growth or viability, ATP luminescence | – | 72 h | – | IC50 | 4e-06 µM |
| CC(C)(C)C(=O)OCOP(=O)(OCOC(=O)C(C)(C)C)C1CCCN(O)C1=O (stereo not drawn) | HCC 2998 | – | – | – | – | log GI50 | -6.35 log M |
| CC(=O)N[C@H](C(=O)N[C@@H](CCCNC(=N)N)C(=O)N[C@@H](CCCCN)C(=O)N[C@@H](CCCNC(=N)N)C(=O)N[C@H](C(=O)N[C@@H](CC(C)C)C(=O)N[C@@H](CCCNC(=N)N)C(=O)N[C@]1(C)CCCCCCC=CCCC[C@@](C)(C(=O)N[C@H](C(=O)N[C@@H](CCC(=O)O)C(N)=O)C(C)C)NC(=O)[C@H](CCC(=O)O)NC(=O)[C@H](CCCNC(=N)N)NC(=O)[C@H](CCC(=O)O)NC(=O)[C@H](CCC(N)=O)NC(=O)[C@H](CC(C)C)NC(=O)[C@H](CC(C)C)NC1=O)[C@@H](C)O)C(C)C | H1975 (EGFR L858R/T790M) | cell viability, ATP luminescence | – | 18 h | – | IC50 | > 100 µM |
| O=C1NC2(CC2)COc2ncc(F)cc2[C@H]2COCCN2c2ccn3ncc1c3n2 | – | – | Sprague-Dawley rat, female, serum | oral, 2.5 mg/kg/day, end of treatment, 4-week subacute toxicity | – | serum total bilirubin | 1 ± 0.4 µmol/L |
| CCOc1ccccc1-n1c(CN2CCNCC2)nc2ccccc2c1=O | LN-18 | cell growth or viability | – | 72 h | – | IC50 | 0.516 µM |
| Cc1cc(C)cc(COc2cc3c(cc2OCc2cc(C)cc(C)c2)C2CC(O)(Cc4cn(CCCCCCNC(=O)CNc5cccc6c5C(=O)N(C5CCC(=O)NC5=O)C6=O)nn4)CC(C)N2CC3)c1 (racemic) | ASPC1 | cell growth or viability, MTT | – | – | – | IC50 | 1.05 µM |
| C#Cc1ccc(N2CCOCC2)c(/C=N/NC(=O)CCl)c1 | AMO1 | cell growth or viability | – | – | – | IC50 | 0.343 µM |
| CN(C)c1ccc(-c2nc3cc(C(=O)Nc4ccc(Cl)cc4)ccc3[nH]2)cc1 | HCT-116 | cell death | – | – | – | IC50 | 3.43 µM |
| COc1cccc2c1C(=O)C=CC2=O | HFF-1 | cell growth or viability, MTT | – | 48 h | – | IC50 | 14.1 µM |
| Cc1cc(Oc2nc(N3CC[C@@H](c4ccncc4)C3)ncc2F)[nH]n1 | HCT-15 | cell proliferation | colon cancer | – | – | IC50 | 41.7 µM |
| CC(C)C12OC1C1OC13C1(C)CCC4=C(COC4=O)C1CC1OC13C2OC(=O)CCC(=O)OC1OC(CO)C(O)C(O)C1O (stereo not drawn) | human cancer cell lines | cell viability, XTT | – | – | – | IC50 | 2.42 µM |
| CC(=O)N[C@H](C(=O)N[C@@H](CCCNC(=N)N)C(=O)N[C@@H](CCCCN)C(=O)N[C@@H](CCCNC(=N)N)C(=O)N[C@@]1(C)CCCC=CCCC[C@@](C)(C(=O)N[C@@H](CC(C)C)C(=O)N[C@@H](CCC(N)=O)C(=O)N[C@@H](CCC(=O)O)C(=O)N[C@@H](CCCNC(=N)N)C(=O)N[C@@H](CCC(=O)O)C(=O)N[C@@H](CC(C)C)C(=O)N[C@H](C(=O)N[C@@H](CCC(=O)O)C(N)=O)C(C)C)NC(=O)[C@H](CCCNC(=N)N)NC(=O)[C@H](CCCNC(=N)N)NC(=O)[C@H](CC(C)C)NC1=O)C(C)C | H1975 (EGFR L858R/T790M) | cell viability, ATP luminescence | – | 18 h | – | IC50 | 32.3 ± 9.37 µM |
| COc1ccccc1-c1n[nH]c2nc(N[C@H]3CC[C@H](NS(=O)(=O)CC(C)C)CC3)ncc12 | – | bead binding, competition bead pull-down, measured: LINJ.25.1850 | Leishmania donovani extract | 10 µM | baseline: vehicle | relative abundance | 0.78 |
| CC[C@H](C)[C@H](NC(=O)[C@H](CCCCN)NC(=O)[C@H](CCCCN)NC(=O)[C@H](CC(C)C)NC(=O)[C@H](CCCCN)NC(=O)[C@H](CCCCN)NC(=O)[C@H](Cc1ccccc1)NC(=O)[C@H](Cc1ccccc1)NC(=O)[C@H](CCCNC(=N)N)NC(=O)[C@H](CCCNC(=N)N)NC(=O)[C@@H](NC(=O)[C@H](CCCCN)NC(=O)[C@H](CCCNC(=N)N)NC(=O)[C@@H](NC(=O)[C@H](Cc1ccc(O)cc1)NC(=O)[C@H](CO)NC(=O)[C@H](CCCNC(=N)N)NC(=O)[C@@H](N)CC(C)C)[C@@H](C)CC)[C@@H](C)CC)C(=O)N[C@@H](CC(C)C)C(=O)N[C@@H](CCCCN)C(=O)N[C@@H](CCCCN)C(N)=O | THP-1 | cell growth or viability, resazurin | – | – | – | IC50 | 10 µM |
| CC(=O)N[C@H](C(=O)N[C@@H](CCCNC(=N)N)C(=O)N[C@@H](CCCCN)C(=O)N[C@@H](CCCNC(=N)N)C(=O)NC(C)(C)C(=O)N[C@@H](CC(C)C)C(=O)N[C@@H](CCCNC(=N)N)C(=O)N[C@@H](CCCNC(=N)N)C(=O)N[C@@H](CC(C)C)C(=O)N[C@@H](CC(C)C)C(=O)N[C@@H](CCC(N)=O)C(=O)NC(C)(C)C(=O)N[C@@H](CCCNC(=N)N)C(=O)N[C@@H](CCC(=O)O)C(=O)N[C@@H](CC(C)C)C(=O)N[C@H](C(=O)N[C@@H](CCC(=O)O)C(N)=O)C(C)C)C(C)C | H2030 (wild-type EGFR) | cell viability, ATP luminescence | – | 18 h | – | IC50 | > 100 µM |
| Cc1ccc(C(C)C)cc1.Cc1ccc(C(C)C)cc1.Cc1ccc(C(C)C)cc1.Cc1ccc(C(C)C)cc1.O=S(=O)(O)C(F)(F)F.O=S(=O)(O)C(F)(F)F.O=S(=O)(O)C(F)(F)F.O=S(=O)(O)C(F)(F)F.c1ccc2c3c4ccccc4c(c2c1)-c1cn(nn1)-c1cc[n+](cc1)[Ru-]1[O]c2ccc4c5c(ccc(c25)=[O+]1)=[O+][Ru-]([O]4)[n+]1ccc(cc1)-n1cc(nn1)-c1c2ccccc2c(c2ccccc12)-c1cn(nn1)-c1cc[n+](cc1)[Ru-]1[O]c2ccc4c5c(ccc(c25)=[O+]1)=[O+][Ru-]([O]4)[n+]1ccc(cc1)-n1cc-3nn1 | HCT-15 | cell growth, MTT | – | 24 h, after 24 h preincubation in medium at 37 °C | – | IC50 | 7.6 ± 0.16 µM |
| CC(=O)[O][Pt]([NH2])([NH2])([Cl])([Cl])[O]C(=O)C(Cl)Cl | HCT-15 | cell growth or viability, MTT | – | 72 h | – | IC50 | 4.05 µM |
| COc1ccccc1-c1n[nH]c2nc(NC3CCN(C(=O)Cc4ccc(F)cc4F)CC3)ncc12 | – | bead binding, competition bead pull-down, measured: LINJ.25.1790 | Leishmania donovani axenic amastigote extract | 10 µM | baseline: vehicle | relative abundance | 0.63 |
| O=C(Nc1cccs1)c1cccnc1 | HCT-116 Cas9-expressing | cell viability | Nam-free DMEM 10% FBS | – | – | IC50 | 0.0208 µM |
